Assay results collected from several papers.
Lines come from different studies, so protocols differ. Numbers after ± are the reported error.

`Nc1ncnc2c1c(Br)cn2[C@H]1C[C@H](O)[C@@H](CO)O1` gave an EC50 of 67 nM (Trypanosoma equiperdum; parasite growth, resazurin; 72 h).
With `Nc1ccn(C[C@@H](CO)OCP(=O)(O)OCCCS(=O)(=O)CCCCCCCCCCCCCC2CCC2)c(=O)n1` the EC50 was 20 ± 10 nM (human alphaherpesvirus 1; cytopathic effect; HFF, E-377).
`CC(=O)Oc1ccc(OC(C)=O)c2c1CC1=C(C2)C(C)(C)CCC1` has an EC50 of 15900 nM (Leishmania infantum; parasite growth; 72 h, promastigote).
The EC50 of `COc1ccc(S(=O)(=O)NCc2c[nH]nc2-c2cccs2)cc1` is reported as 540 nM (Eimeria tenella; intracellular growth; MDBK, Penn State).
`CCCCSc1cccc(O)c(=O)c1O` has an EC50 of 1010 ± 320 nM (human alphaherpesvirus 1; viral replication, plaque reduction; Vero).
For `Nc1ncnc2c1c(F)cn2[C@@H]1O[C@H](CO)C[C@H]1O`, the EC50 was 0.5 nM (Trypanosoma equiperdum; parasite growth, resazurin; 72 h).
`Nc1ccn(C[C@@H](CO)OCP(=O)(O)OCCCS(=O)(=O)CCCCCCCCCCC2CCC2)c(=O)n1` has an EC50 of 70 ± 40 nM (human alphaherpesvirus 1; cytopathic effect; HFF, E-377).
`CC1(C)CCCc2cc3c(cc21)C(=O)C=CC3=O` gave an EC50 of 23000 ± 2100 nM (Leishmania infantum; intracellular amastigotes, ex vivo mouse splenic explants; 72 h).
For `O=c1c(O)c(SCc2ccccc2)ccc(SCc2ccccc2)c1O`, the EC50 was 80 ± 20 nM (human alphaherpesvirus 1; viral replication, plaque reduction; Vero).
The EC50 of `CCNC1=CC(=O)c2cc3c(cc2C1=O)CCCC3(C)C` is reported as 33800 ± 5200 nM (Leishmania infantum; intracellular amastigotes, ex vivo mouse splenic explants; 72 h).
`Nc1ncnc2c1c(Cl)cn2[C@@H]1O[C@H](CO)C[C@H]1O` gave an EC50 of 0.6 nM (Trypanosoma equiperdum; parasite growth, resazurin; 72 h).
`Nc1nc2c(ncn2COCCOC(=O)CCC(=O)OC[C@H](N)C(=O)O)c(=O)[nH]1` gave an EC50 of 43500 nM (human alphaherpesvirus 1; viral cytopathic effect, CPE inhibition).
For `CC(C)CCCc1ccc2c(c1)C(=O)C(Br)=C(Br)C2=O`, the EC50 was 90000 ± 4300 nM (Leishmania infantum; intracellular amastigotes, ex vivo mouse splenic explants; 72 h).
The EC50 of `O=c1c(O)cccc(SCc2ccccc2)c1O` is reported as 590 ± 60 nM (human alphaherpesvirus 1; viral replication, plaque reduction; Vero).
The EC50 of `CC(C)Oc1ncnc2c1c(Cl)cn2[C@@H]1O[C@H](CO)[C@@H](O)[C@H]1O` is reported as 110 nM (Trypanosoma equiperdum; parasite growth, resazurin; 72 h).
The EC50 of `CCCCCOC(=O)C12CCC(C)C(C)C1C1=CCC3C4(C)CCC(OC5OC(CO)C(OC6OC(C)C(O)C(O)C6O)C(O)C5OC5OC(C)C(O)C(O)C5O)C(C)(C)C4CCC3(C)C1(C)CC2` (stereo not drawn) is reported as 6210 ± 470 nM (PRRSV; viral replication, immunofluorescence; MARC-145, GD-XH; 48 h p.i.).
The EC50 of `Nc1ccn(C[C@@H](CO)OCP(=O)(O)OCCCS(=O)(=O)CCCCCCCCCCCCC2CCC2)c(=O)n1` is reported as 10 ± 10 nM (human alphaherpesvirus 1; cytopathic effect; HFF, E-377).
The EC50 of `CCOC(=O)[C@@H](C)NP(=O)(CO[C@H](CF)CN1CNC(N)=NC1=O)N[C@H](C)C(=O)OCC` is reported as over 100000 nM (human adenovirus 2; cytopathic effect).
`CC1(CCCCCCCCCCCCCCOCCCOP(=O)(O)CO[C@H](CO)Cn2ccc(N)nc2=O)COC1` gave an EC50 of 5170 ± 7320 nM (human gammaherpesvirus 4; qPCR; Akata; 3 days).
With `Nc1ncnc2c1ccn2[C@@H]1O[C@H](CO)C[C@H]1O` the EC50 was 3 nM (Trypanosoma equiperdum; parasite growth, resazurin; 72 h).
For `CC1(CCCCCCCCCCOCCCOP(=O)(O)CO[C@H](CO)Cn2ccc(N)nc2=O)COC1`, the EC50 was 3180 ± 3780 nM (human alphaherpesvirus 1; cytopathic effect; HFF, E-377).
For `C[C@H](N)C(=O)OCCOCn1cnc2c(=O)[nH]c(N)nc21`, the EC50 was 6600 nM (human alphaherpesvirus 1; viral cytopathic effect, CPE inhibition).
The EC50 of `CC1(CCCCCCCCCCCCOCCCOP(=O)(O)CO[C@H](CO)Cn2ccc(N)nc2=O)COC1` is reported as 3810 ± 3040 nM (human gammaherpesvirus 4; qPCR; Akata; 3 days).
With `Nc1ncnc2c1c(-c1ccccn1)cn2[C@@H]1O[C@H](CO)[C@@H](O)[C@H]1O` the EC50 was 61 nM (Trypanosoma equiperdum; parasite growth, resazurin; 72 h).

Repeated from above:
`Nc1ccn(C[C@@H](CO)OCP(=O)(O)OCCCS(=O)(=O)CCCCCCCCCCC2CCC2)c(=O)n1` has an EC50 of 70 ± 40 nM (human alphaherpesvirus 1; cytopathic effect; HFF, E-377).
For `O=c1c(O)c(SCc2ccccc2)ccc(SCc2ccccc2)c1O`, the EC50 was 80 ± 20 nM (human alphaherpesvirus 1; viral replication, plaque reduction; Vero).
